Results from different studies.
Each line is one published result; not all experiments were run side by side. ± marks the error that the study gave.
Chain of UniProt P10721 (whole entry, unmodified, looked up): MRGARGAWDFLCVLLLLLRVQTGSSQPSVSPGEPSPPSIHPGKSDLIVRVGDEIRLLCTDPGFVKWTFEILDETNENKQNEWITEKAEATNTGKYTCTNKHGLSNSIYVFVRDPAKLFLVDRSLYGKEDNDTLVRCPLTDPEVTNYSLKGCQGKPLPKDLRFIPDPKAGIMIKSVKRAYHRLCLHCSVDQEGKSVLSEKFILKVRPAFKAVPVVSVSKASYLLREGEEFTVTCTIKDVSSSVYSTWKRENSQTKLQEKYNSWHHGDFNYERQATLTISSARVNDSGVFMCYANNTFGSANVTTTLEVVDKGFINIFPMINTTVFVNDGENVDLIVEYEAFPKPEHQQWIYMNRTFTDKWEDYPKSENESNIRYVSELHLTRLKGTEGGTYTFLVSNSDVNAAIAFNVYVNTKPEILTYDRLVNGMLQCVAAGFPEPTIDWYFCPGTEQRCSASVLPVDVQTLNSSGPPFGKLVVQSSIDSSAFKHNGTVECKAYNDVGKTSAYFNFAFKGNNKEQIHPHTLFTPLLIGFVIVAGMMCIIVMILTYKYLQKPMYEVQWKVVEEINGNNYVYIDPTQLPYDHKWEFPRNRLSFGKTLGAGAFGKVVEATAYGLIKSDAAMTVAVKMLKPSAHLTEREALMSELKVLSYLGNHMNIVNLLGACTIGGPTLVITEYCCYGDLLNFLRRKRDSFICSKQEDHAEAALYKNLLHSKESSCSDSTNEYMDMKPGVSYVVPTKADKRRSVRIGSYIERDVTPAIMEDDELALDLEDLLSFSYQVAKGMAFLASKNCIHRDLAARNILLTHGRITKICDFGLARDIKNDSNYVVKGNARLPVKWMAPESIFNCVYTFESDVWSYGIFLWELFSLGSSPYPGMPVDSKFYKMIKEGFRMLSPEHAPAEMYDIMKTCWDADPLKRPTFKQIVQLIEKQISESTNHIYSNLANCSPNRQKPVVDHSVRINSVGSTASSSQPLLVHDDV
Chain of UniProt P48426 (whole entry, looked up): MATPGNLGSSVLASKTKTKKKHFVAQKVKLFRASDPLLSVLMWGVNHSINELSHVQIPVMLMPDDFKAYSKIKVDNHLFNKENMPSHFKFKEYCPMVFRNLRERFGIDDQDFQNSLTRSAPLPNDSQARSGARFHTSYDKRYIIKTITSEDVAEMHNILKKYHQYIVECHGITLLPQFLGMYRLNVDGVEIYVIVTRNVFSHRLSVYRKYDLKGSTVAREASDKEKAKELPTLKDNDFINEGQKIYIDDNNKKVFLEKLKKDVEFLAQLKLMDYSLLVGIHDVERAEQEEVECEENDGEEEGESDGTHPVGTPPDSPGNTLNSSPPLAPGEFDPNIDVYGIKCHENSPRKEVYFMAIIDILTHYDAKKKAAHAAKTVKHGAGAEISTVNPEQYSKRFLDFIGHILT

| SMILES | tested on | assay | test system | setting | scale | measurement | value |
| --- | --- | --- | --- | --- | --- | --- | --- |
| CC(C)(C)C(=O)OCOP(=O)(OCOC(=O)C(C)(C)C)C1CCCN(O)C1=O (stereo not drawn) | NCI-H226 | – | – | – | – | GI50 | 996 nM |
| CS(C)(=O)=Nc1ccc(-c2ccc(-c3nc4cc(O[C@@H]5CO[C@H]6[C@@H]5OC[C@H]6O)[nH]c4cc3F)cc2)cc1 | PRKCA (Homo sapiens, UniProt P17252) | enzyme activity, inhibitor | – | 10 µM | – | inhibition | 6% |
| COc1ccccc1-c1n[nH]c2nc(NC3CCN(C(=O)Cc4ccc(F)cc4F)CC3)ncc12 | – | bead binding, competition bead pull-down, refers to: LINJ.20.0110 | Leishmania donovani extract | 10 µM | relative to: vehicle | relative abundance | 0.94 |
| O=S(=O)(N[C@H]1CCO[C@@H](C2c3ccccc3CCc3ccccc32)C1)c1ccc(OC(F)(F)F)cc1 | – | H&E staining | D341-Luc, athymic nude mouse, intraventricular leptomeningeal disease model, spinal column | dose not given | relative to: vehicle | metastasis area | decreased |
| O=C(O)c1ccc(-c2nc(-c3ccccc3Cl)c3sccn23)cc1 | – | – | mouse, spleen | dose not given | – | splenic vWF+ megakaryocytes | 18.8 per high-power field |
| CCCC[C@@H]1NC(=O)[C@H](Cc2ccc(O)cc2)NC(=O)[C@@H]2CCCN2C(=O)[C@H](CC(=O)O)NC(=O)[C@H](C)NC(=O)[C@H](Cc2ccccc2)NC(=O)[C@@H]2CSCCC(=O)N3CN(CN(C3)C(=O)CCSC[C@@H](C(=O)N[C@@H](C)C(N)=O)NC1=O)C(=O)CCSC[C@H](NC(C)=O)C(=O)N[C@@H](CC(C)(C)C)C(=O)N1CCC[C@H]1C(=O)N[C@@H](CCC(=O)O)C(=O)N[C@H](CCCCNC(=O)CCc1cn(CCOCCOCCOCCN(CCOCCOCCOCCC(=O)N[C@H]3CSCCC(=O)N4CN5CN(C4)C(=O)CCSC[C@H](NC(=O)[C@@H](CC(=O)O)NC(=O)[C@H](Cc4cccc6ccccc46)NC(=O)[C@@H]4CCCN4C3=O)C(=O)N[C@@H](CCSC)C(=O)N[C@@H](CCCCNC(=N)N)C(=O)N[C@@H](CC(=O)O)C(=O)N[C@@H](Cc3c[nH]c4ccccc34)C(=O)N[C@@H](CO)C(=O)N[C@@H]([C@@H](C)O)C(=O)N3CCC[C@H]3C(=O)N3C[C@H](O)C[C@H]3C(=O)N[C@@H](Cc3c[nH]c4ccccc34)C(=O)N[C@H](C(N)=O)CSCCC5=O)CCOCCOCCOCCn3cc(CCC(=O)NCCCC[C@H]4NC(=O)[C@H](CCC(=O)O)NC(=O)[C@@H]5CCCN5C(=O)[C@H](CC(C)(C)C)NC(=O)[C@@H](NC(C)=O)CSCCC(=O)N5CN6CN(C5)C(=O)CCSC[C@H](NC(=O)[C@H](Cc5ccc(O)cc5)NC(=O)[C@@H]5CCCN5C4=O)C(=O)N[C@@H](Cc4ccccc4)C(=O)N[C@@H](C)C(=O)N[C@@H](CC(=O)O)C(=O)N4CCC[C@H]4C(=O)N[C@@H](Cc4ccc(O)cc4)C(=O)N[C@@H](CCCC)C(=O)N[C@H](C(=O)N[C@@H](C)C(N)=O)CSCCC6=O)nn3)nn1)C(=O)N1CCC[C@H]1C(=O)N[C@@H](Cc1ccc(O)cc1)C(=O)N2 | – | NanoString, refers to: Fcgr2b-mRNA | mouse bearing MC38-Nectin-4 tumour, circulating white blood cells | 5 mg/kg, 24 h after dosing, unit not given | relative to: vehicle | mRNA level | 1.93 |
| COc1ccccc1-c1n[nH]c2nc(N[C@H]3CC[C@H](NS(=O)(=O)CC(C)C)CC3)ncc12 | – | bead binding, competition bead pull-down, refers to: LINJ.35.1420 | Leishmania donovani extract | 10 µM | relative to: vehicle | relative abundance | 1.08 |
| NNC(=O)c1ccccc1 | – | hydrazine ligation kinetics, absorbance | – | concentration not given, 15 s, added: 2-formylphenylboronic acid | – | normalised absorbance | 0.518 |
| CC(C)[C@H]1NC(=O)C[C@H]2/C=C/CCSSC[C@@H](NC1=O)C(=O)N[C@H](Cc1cccc3ccccc13)C(=O)NCC(=O)O2 | KIT (Homo sapiens, UniProt P10721, D816Y) | enzyme activity, inhibitor | – | 10 µM | – | inhibition | 2.4% |
| CO[C@H]1CC=C2CCN3CCC4=C(CC(=O)CC4)[C@]23C1 | – | intermittent two-bottle choice | Wistar rat, 20% ethanol drinking | subcutaneous, 10 mg/kg, 6 h | relative to: ethanol over total fluid intake | ethanol preference | 46 ± 4% |
| CC(C)C[C@@H]1NC(=O)[C@@H](Cc2c[nH]c3ccccc23)NC(=O)[C@H](CCCNC(=N)N)NC(=O)[C@@H](CCC(=O)O)NC(=O)[C@H](CCC(N)=O)NC(=O)[C@@H](CCC(=O)O)NC(=O)[C@H](CCCNC(=N)N)NC(=O)[C@@H](Cc2c[nH]c3ccccc23)NC1=O | – | Luminex, refers to: IL3 | LDLr-/- mice, Western diet, liver | dose not given, 4 weeks | – | cytokine level | 31 ± 15 pg/g tissue |
| C[C@H](NCc1ccc(-c2ccc(C(F)(F)F)cc2)cc1)C(N)=O | – | passive avoidance retention | APP/PS1 mice | oral, 10 mg/kg, 336 h, 2 weeks treatment | – | step-through latency | 314 ± 66.5 s |
| CN(C)[C@H]1C[C@@]23CC[C@@]4(O2)C(=CC[C@]2(C)[C@@H](c5ccc6ccncc6c5)CC[C@H]24)C=C3[C@@H](O)[C@@H]1O | PIP4K2A (Homo sapiens, UniProt P48426) | ATP probe labelling, inhibitor, KiNativ profiling | – | 1 µM | – | inhibition | -5% |
| O=C1NC2(CC2)COc2ncc(F)cc2[C@H]2COCCN2c2ccn3ncc1c3n2 | – | – | Sprague-Dawley rat, female, heart | oral, 20 mg/kg/day, 4 weeks, end of treatment | – | organ-to-brain weight ratio | 71.5 ± 10.9% |
| N#CCc1ccc(O)cc1 | – | ABTS radical | – | 300 µg/mL | – | radical scavenging | 15.8 ± 1.67% |

Excerpt of the above:
| SMILES | tested on | assay | test system | setting | scale | measurement | value |
| --- | --- | --- | --- | --- | --- | --- | --- |
| CC(C)(C)C(=O)OCOP(=O)(OCOC(=O)C(C)(C)C)C1CCCN(O)C1=O (stereo not drawn) | NCI-H226 | – | – | – | – | GI50 | 996 nM |
